Measurements gathered from unrelated publications.
Parts stem from different laboratories: compare values within a part only.

Series 1
Target: Prothrombin, mature alpha-thrombin (F2, Homo sapiens, UniProt P00734)
Method: aptamer microarray, sandwich
Form: DNA with 2'F-ANA
Sample: in vitro
Concentration: 200 nM
Notes: whole 15-mer aptamer, many near background
With: Cy3 exosite-II aptamer, 400 nM
Reading: higher = stronger binding
Oligonucleotide: GGTTGGTGTGGTTGG
Modification	mean fluorescence intensity
2'F-ANA at 1 4 6 7 8 10 12	62.3 a.u.
2'F-ANA at 2 3 4 5 7	151 a.u.
2'F-ANA at 1 2 6 8 12 13 15	259 a.u.
2'F-ANA at 1 2 4 5 6 7 9 11 15	48.4 a.u.
2'F-ANA at 1 2 7 10 13 14	42.7 a.u.
2'F-ANA at 2 3 8 9 10 11	351 a.u.
2'F-ANA at 1 2 3 4 6 7 10 12 13	58.4 a.u.
2'F-ANA at 1 2 3 5 7 8 9 10 11 12 14	46.3 a.u.
2'F-ANA at 2 4 8 10 14 15	122 a.u.
2'F-ANA at 1 2 5 6 9 15	59.3 a.u.
2'F-ANA at 1 5 6 8 11 12 13 14	50.8 a.u.
2'F-ANA at 1 4 8 9 11 12 13 14	63.6 a.u.
2'F-ANA at 1 5 6 7 13 14 15	46.5 a.u.
2'F-ANA at 1 3 6 7 10 11 12 13 14	62.5 a.u.
2'F-ANA at 1 3 4 10 14 15	52.4 a.u.
2'F-ANA at 2 4 5 10 11 15	49.8 a.u.
2'F-ANA at 1 5 6 7 8 9 10 11 12 13 14 15	53.5 a.u.

Series 2
Target: Histone acetyltransferase KAT6A, winged helix 1, GST fusion (KAT6A, Homo sapiens, UniProt Q92794, residues 1-85)
Method: protein binding microarray
Form: double-stranded DNA, one strand shown
Sample: in vitro
Concentration: not given
Notes: 8-mer, flanks averaged, mean of 2 arrays, mostly near background
Baseline: not given
Reading: higher = stronger binding
Target sequence (chain): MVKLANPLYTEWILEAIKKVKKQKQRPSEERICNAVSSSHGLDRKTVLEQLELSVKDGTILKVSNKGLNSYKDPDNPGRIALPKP
Oligonucleotide	E-score
AGTACACA	-0.00659
CTCCCCCA	-0.0419
AGAGGAAG	-0.212
CAGTCATA	-0.206
GTACAATA	-0.00979
CATGTAAG	0.115
ACATAACA	-0.0571
CGGACTAA	0.134
CTCATTGA	-0.124
ATAAGGAT	-0.379
AACGGCCC	0.219
CATGGGGG	-0.224
CTCAGCAA	-0.116
ATGAGCTG	-0.0602
GTACTATA	-0.0596
CACTTGAC	0.0425

Series 3
Target: Interferon regulatory factor 7, full length, phosphomimetic (IRF7, Homo sapiens, UniProt Q92985, residues 1-503, S101K/S471D/S472D/S475D/S476D/S477D/S483D/S484D/S487D)
Method: protein-binding microarray
Form: double-stranded DNA, one strand shown
Sample: in vitro
Concentration: 250 nM
Notes: 60-bp whole probe
With: salmon DNA 0.4 mg/ml
Baseline: random background probes
Reading: higher = stronger binding
Shared flanks, not repeated: GCCTAGCAC … GTCTTGATTCGCTTGACGCTGCTG
Construct (chain): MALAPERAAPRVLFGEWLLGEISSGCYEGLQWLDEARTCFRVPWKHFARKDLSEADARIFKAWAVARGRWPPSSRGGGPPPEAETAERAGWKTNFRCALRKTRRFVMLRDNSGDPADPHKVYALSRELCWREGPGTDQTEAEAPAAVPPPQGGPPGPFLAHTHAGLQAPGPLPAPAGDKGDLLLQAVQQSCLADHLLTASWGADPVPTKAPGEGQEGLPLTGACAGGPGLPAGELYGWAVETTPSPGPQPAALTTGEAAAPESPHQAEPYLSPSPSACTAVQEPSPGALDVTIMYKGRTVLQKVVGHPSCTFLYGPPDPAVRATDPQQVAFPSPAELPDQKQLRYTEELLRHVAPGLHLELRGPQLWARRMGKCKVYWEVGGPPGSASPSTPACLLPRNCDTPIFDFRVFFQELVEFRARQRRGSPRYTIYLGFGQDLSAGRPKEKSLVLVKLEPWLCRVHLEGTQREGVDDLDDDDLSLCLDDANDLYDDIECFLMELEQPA
Oligonucleotide	log fluorescence
GACGGACTGGGGTATCGGGAGGTGCTA	-0.58 z-score
GACGGTCTCCTTCTCCTGATGTGCTAG	-0.00249 z-score
GACGGGATCGACACTGGGGACGTGCTA	-0.792 z-score
GACGCTTTCGACACTGGGGACGTGCTA	0.492 z-score
GACGATTCCGGGTTTCGAGACGTGCTA	3.29 z-score
TCACTCCTATCTTATGATACTGTGCTA	0.6 z-score
TTAGGTTCCGGTTTCCGTTAGTGCTAG	8.46 z-score
TGAGATTTCGGGTATCGATTAGTGCTA	1.58 z-score
TTAGGACTGGGTTTCGGTCAGTGCTAG	1.9 z-score
TTAGGTTTCCTTCGCCTTTAGTGCTAG	0.956 z-score
TACGGTATCCTACTGCTGACGTGCTAG	-0.254 z-score
TTAGATATCAGTTGCGATTAGTGCTAG	0.605 z-score
AAGTGTATATACTATATGCATGTGCTA	-0.25 z-score
GACGGGTTCGGGACTGGGGACGTGCTA	-0.0359 z-score
TCACTTTCCACTTGTCTTACTGTGCTA	3.69 z-score
TAAGATTTCAGTATCGATTAGTGCTAG	1.41 z-score
GACGATATCGGGTATCGAGTCGTGCTA	0.468 z-score
GACGATTTCAGTATCGGGACGTGCTAG	0.419 z-score
GACCGTTTCGACTTTCGGGACGTGCTA	5.56 z-score
GTAGATATCGGGACTGGATTAGTGCTA	-0.128 z-score

Series 4
Target: Centromere-binding protein 1, full length, N-terminal tag (CBF1, Saccharomyces cerevisiae, UniProt P17106, residues 1-351)
Sequence of UniProt P17106 (whole entry, looked up): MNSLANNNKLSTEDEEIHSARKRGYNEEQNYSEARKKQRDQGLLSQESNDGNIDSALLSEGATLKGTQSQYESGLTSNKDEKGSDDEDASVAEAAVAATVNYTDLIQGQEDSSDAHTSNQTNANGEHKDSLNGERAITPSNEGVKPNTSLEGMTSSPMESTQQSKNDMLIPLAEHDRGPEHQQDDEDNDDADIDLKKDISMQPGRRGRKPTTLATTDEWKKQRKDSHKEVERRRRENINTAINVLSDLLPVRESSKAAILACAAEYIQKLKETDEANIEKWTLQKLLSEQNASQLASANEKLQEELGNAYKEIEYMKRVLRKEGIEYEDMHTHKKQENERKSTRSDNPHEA
Method: protein-binding microarray
Form: double-stranded DNA, one strand shown
Sample: in vitro
Concentration: 0.8 µM
Notes: whole 60-bp probe, no competitor
Reading: higher = stronger binding
Shared flanks, not repeated: … GTCTTGATTCGCTTGACGCTGCTG
Oligonucleotide	fluorescence intensity
GAATGAATGCCGGGCCGCGTGGCGTCTGTAGCTTAG	708 a.u.
GAAGCTCCACCTCATCACCTGAAAAATCTGGAATAG	566 a.u.
CTAATGCGATGTGGCCACGTTATATAATGCGTTTTC	580 a.u.
GAAGTTTCTTTCAAACTGATCACGTGAAAGGGATAG	20800 a.u.
CTAGGCATCACGTTCGTCGTGACATATGACTTGTTC	2720 a.u.
CTAAGGCAATTCAATCAGGTGGTTATACTTGTTTTC	913 a.u.
CCTAACTACTATATGACTGTATTATAGCTTCGTACA	540 a.u.
GAAAATAACAGCAATCACGTCTAAAAAGCTTTCTAG	545 a.u.
CTACGATGCTTACTCAAGGTGACACAATCGTTATTC	515 a.u.
GAAGCCTTTAGTAATCACGGGTTTTTTCCTATTTAG	1370 a.u.
CTATCTTCATCTATGCATGTGCCTCTCCCAACGTTC	744 a.u.
GAAGGTAGTCTAAAGAACGTGCATCAGAGAAGATAG	816 a.u.
CTAACCCCCAGCTGGGATGTGATCACGATGAGTTTC	778 a.u.
GAAATATTCTTTCATAACGTGAAACATAAAGTTTAG	567 a.u.
CTATTATGACAAGTAGACATGATGCCGCAGCCTTTC	524 a.u.
GAAACTATTACATATCACATGGTATAGCATACATAG	3550 a.u.
CTACCCTCTAAACACGTGGAGAGTAACCTTTTCTTC	3410 a.u.
CTATTTATCTTTTCTCACCTCACAACGTTTATATTC	560 a.u.
GAAGCTAAGAGGGCACTTGGTCACAACTACAGATAG	587 a.u.
CTAGCGCCTTTGTATGACGTGAAGCGATCCGCCTTC	521 a.u.
GAATTGCACTTACGTGACGTGACGAAATATTAGTAG	1060 a.u.
GAACGCTACGTAAAGTACATCATGTTTACCAGTTAG	508 a.u.

Series 5
Target: RNA binding protein fox-1 homolog 2, RRM domain, GST-SBP tag (RBFOX2, Homo sapiens, UniProt O43251-10, residues 100-194)
Method: RNA Bind-n-Seq
Form: RNA
Sample: in vitro
Concentration: 365 nM
Notes: natural RNA segment, single round, ends assumed
Baseline: no-protein control
Reading: higher = stronger binding
Shared flanks, not repeated: GGGAGUUCUACAGUCCGACGAUC … UGGAAUUCUCGGGUGCCAA
Residues (chain): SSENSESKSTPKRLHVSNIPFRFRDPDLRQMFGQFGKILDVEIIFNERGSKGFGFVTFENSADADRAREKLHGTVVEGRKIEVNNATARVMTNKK
Oligonucleotide	RBNS enrichment (R)
CACUUGGAAACGGUAUCCUCCCUGCCCAUCCGUCUGUCUGUCGCCCUUCUCCCGGCCCUCACUAAGCCCCGGCACUUCUAGUGGUCUCACCUGGAGGCAAGAGGGAGGGG	0.339
AGCUUCUGUGUUGGUCCUUUGUAGAGAUGGAAGUGGAGCCAUCCUGCUGUGAACAGUUAUGAACCAGGGGAGGCUGCUGCAUGUGCCUAUUAUGUUGGCAGUGGGUGGCA	12.3
AAUAAGGCCCAAUUCAUCCCACAGCACUGAUCAUCUUUUAAUAUCCCACCCUAAGCGAACGGUAAGAAGGCCUCUCUUAAGAAGGGGAGACAGAUGGUCCUUAACUACUC	0.379
GUGUAAGAUCACACAGUUGUCAGAGUCAGGAUUCAAAUCUAGUUCUAACUCCAAAGCUCUCCACACUAACAUUGUUUUGCUUAUUAUUGCUCCAAAGAUAAUUACCCCAA	0.73
UGAUUAGGUGGCCUUUUCUGUGCAGUUACUAAUCACAGGAAUUUGGUAGUAGUGAAAAUCAGGUUUGCUGUGUUCUGCUUUGAGGCCUGGAAUCUUUUAUCAUUAAACAC	0.564
GCCCACCACCCCUGGGUGCUCAGUUUCUACCAACAUGAGCCAGCAAGUCCUUGUGGUAGCCCUGGGGUAGCCUGUAGUAGACUCGGGUCCUGUCCACAGCCCUAGCUGCC	0.619
GAACCUAGUCAGUGCUGACGCCUUCAUUUGGCUCUGCAGUCAACUUUCCAAGGCACGGUGUGGACGCAUCUGUCACCGACCCGAGGUGACGUGGUACUGGGAUGUGAGUG	0.46
UCAUCACACUAUCCUGACUCCCACGGAAAGCAACAGGAGACCUCGCAUGGUGUCCUACAGCAGCAGUUUCUGUCUUUGUAAUUCCUUGUUGACCACAUACAGCAGGCAGC	2.64
UUUAUUAGAUAUGAGUUGUUUUCAGACUCAGACUCCAUUUGUAUUAUAGUCUAAUAUACAGGGUAGCAGGUACCACUGAUUUGGAGAUAUUUAUGGGGGGAGAACUUACA	0.44
UGUCUGCUGUGUUUUCUUACGAAAAGAGUUUCGUUCUGCCAGUGCUGUGAGUUGGGAAUUCCUGCGUGGCGACUUUCUCUGAGGCCCACAGAGAAUCAGGUAACAUUGCA	2.44
UUGUUUCAGUUCUGUCUCCCAGAUAAUGUGAAAACGGUCCAGGAGAAGGCAGCUUCCUAUAUGCAGCGUGUGCUUUCUUAUUCUUAUUUUUAAUAUAUGACAGUUAUUUG	0.825
UGCUGGGGCUUCCCCUUCGCCACACAGAAGCCUGCUUAGUGCUUUCUGCACCAGACAACCUGUUGAGGCGUAUAACCUGAUCUGUACAUUUUUUUAAGUGUGCAGGGCAG	0.19

Series 6
Target: Sal-like protein 4, full length isoform A (SALL4, Homo sapiens, UniProt Q9UJQ4, residues 1-1053)
Sequence of UniProt Q9UJQ4 (whole entry, looked up): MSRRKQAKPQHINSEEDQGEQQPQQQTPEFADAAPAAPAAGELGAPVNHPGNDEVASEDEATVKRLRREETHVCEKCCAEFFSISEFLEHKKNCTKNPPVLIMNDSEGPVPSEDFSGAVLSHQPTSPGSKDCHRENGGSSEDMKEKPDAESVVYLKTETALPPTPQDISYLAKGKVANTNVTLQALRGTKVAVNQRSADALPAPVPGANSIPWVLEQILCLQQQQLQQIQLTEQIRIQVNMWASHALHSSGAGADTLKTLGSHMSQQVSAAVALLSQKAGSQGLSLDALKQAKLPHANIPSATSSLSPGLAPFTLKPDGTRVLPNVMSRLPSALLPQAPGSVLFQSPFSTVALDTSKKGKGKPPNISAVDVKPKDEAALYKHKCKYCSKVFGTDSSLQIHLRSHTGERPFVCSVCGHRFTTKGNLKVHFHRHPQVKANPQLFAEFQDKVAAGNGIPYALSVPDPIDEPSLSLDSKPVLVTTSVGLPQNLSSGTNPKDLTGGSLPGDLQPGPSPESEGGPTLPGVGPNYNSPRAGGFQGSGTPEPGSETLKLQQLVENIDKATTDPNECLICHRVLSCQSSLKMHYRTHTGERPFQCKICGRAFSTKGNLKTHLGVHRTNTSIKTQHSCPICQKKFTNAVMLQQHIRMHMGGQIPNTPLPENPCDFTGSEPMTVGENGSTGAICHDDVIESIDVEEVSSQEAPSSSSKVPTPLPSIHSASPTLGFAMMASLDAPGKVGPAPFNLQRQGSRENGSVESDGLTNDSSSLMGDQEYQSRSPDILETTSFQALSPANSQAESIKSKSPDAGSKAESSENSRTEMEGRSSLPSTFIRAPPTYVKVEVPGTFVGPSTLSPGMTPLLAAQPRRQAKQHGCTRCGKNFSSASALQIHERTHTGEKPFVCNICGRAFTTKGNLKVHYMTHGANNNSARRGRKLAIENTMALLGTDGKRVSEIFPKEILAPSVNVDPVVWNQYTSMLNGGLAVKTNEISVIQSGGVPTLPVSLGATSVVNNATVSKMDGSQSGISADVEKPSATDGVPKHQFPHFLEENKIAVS
Method: universal PBM
Form: double-stranded DNA, one strand shown
Sample: in vitro
Concentration: 600 nM
Notes: 8-mer, flanks averaged, mean of replicates
Reading: higher = stronger binding
Oligonucleotide	E-score
CGTGGACA	-0.23
CCCACGTC	-0.248
AGACCGGA	-0.233
AGTCAGAC	0.00477
GCAGATCA	-0.162
CCGAGTAA	0.0131
CGACTAAG	-0.118
ACTCGGCT	-0.261
CTAGGCTA	-0.116
CGTTTGAC	-0.0405
GGTCAGAA	-0.0284
AATCCAGG	-0.119
TCGTTGAA	0.129
AAGTGATG	-0.0224
CAAGATAA	0.22
GTTCTGTA	0.0179

A few entries again (series 6):
Oligonucleotide	E-score
CCGAGTAA	0.0131
CGACTAAG	-0.118
ACTCGGCT	-0.261
CTAGGCTA	-0.116
CGTTTGAC	-0.0405
GGTCAGAA	-0.0284
AATCCAGG	-0.119
TCGTTGAA	0.129
